Experimental data gathered from unrelated publications.
HLA class I histocompatibility antigen, A alpha chain allele A*24:02: HLA class I histocompatibility antigen, A alpha chain, allele A*24:02 (Homo sapiens, UniProt P04439)
HLA class I histocompatibility antigen, A alpha chain allele A*26:01: HLA class I histocompatibility antigen, A alpha chain, allele A*26:01 (Homo sapiens, UniProt P04439)
HLA class I histocompatibility antigen, A alpha chain allele A*02:01: HLA class I histocompatibility antigen, A alpha chain, allele A*02:01 (Homo sapiens, UniProt P04439)

SMILES	target	assay	setting	IC50
CC(C)[C@H](NC(=O)[C@@H](N)Cc1ccc(O)cc1)C(=O)N[C@@H](Cc1ccc(O)cc1)C(=O)N[C@@H](CCC(N)=O)C(=O)N[C@@H](Cc1c[nH]cn1)C(=O)N1CCC[C@H]1C(=O)N[C@@H](Cc1c[nH]cn1)C(=O)N[C@H](C(=O)N[C@@H](Cc1ccc(O)cc1)C(=O)O)[C@@H](C)O	HLA class I histocompatibility antigen, A alpha chain allele A*24:02	binding	–	59.4 µM
CC[C@H](C)[C@H](NC(=O)[C@H](CCCNC(=N)N)NC(=O)CNC(=O)[C@@H](NC(=O)[C@@H]1CCCN1C(=O)[C@@H](N)CCSC)[C@@H](C)CC)C(=O)N[C@@H](C)C(=O)N[C@@H](CCC(=O)O)C(=O)N[C@@H](CS)C(=O)N[C@H](C(=O)N[C@@H](CC(C)C)C(=O)O)[C@@H](C)CC	HLA class I histocompatibility antigen, A alpha chain, allele A*02:06 (Homo sapiens, UniProt P04439)	binding, competitor, radioligand competition	two days, room temperature, HLA-A*02:06	> 40 µM
CSCC[C@H](NC(=O)[C@H](CO)NC(=O)[C@H](Cc1c[nH]c2ccccc12)NC(=O)[C@@H]1CCCN1C(=O)[C@H](CCCCN)NC(=O)[C@H](CCC(N)=O)NC(=O)[C@H](Cc1ccccc1)NC(=O)[C@H](CCSC)NC(=O)[C@@H](N)CCCNC(=N)N)C(=O)O	HLA class I histocompatibility antigen, A alpha chain allele A*24:02	binding	–	4.78 µM
CC(C)C[C@H](NC(=O)[C@H](CCC(N)=O)NC(=O)[C@H](CC(=O)O)NC(=O)[C@H](C)NC(=O)[C@@H](N)Cc1c[nH]cn1)C(=O)N[C@H](C(=O)N1CCC[C@H]1C(=O)N[C@H](C(=O)N[C@@H](Cc1c[nH]c2ccccc12)C(=O)O)[C@@H](C)O)[C@@H](C)O	HLA class I histocompatibility antigen, A alpha chain allele A*26:01	peptide-MHC binding, radioligand competition binding	–	> 70 µM
CC[C@H](C)[C@H](NC(=O)[C@H](CCCNC(=N)N)NC(=O)[C@H](CC(N)=O)NC(=O)[C@H](Cc1ccccc1)NC(=O)[C@@H](NC(=O)[C@@H](N)Cc1ccc(O)cc1)[C@@H](C)O)C(=O)N[C@@H](Cc1c[nH]cn1)C(=O)N[C@@H](CCC(=O)O)C(=O)N[C@@H](Cc1ccccc1)C(=O)O	HLA class I histocompatibility antigen, A alpha chain, allele A*01:01 (Homo sapiens, UniProt P04439)	binding	–	7.7 µM
CSCC[C@H](NC(=O)[C@H](Cc1ccc(O)cc1)NC(=O)[C@H](CC(C)C)NC(=O)[C@H](CCSC)NC(=O)[C@H](CO)NC(=O)CNC(=O)[C@H](CC(C)C)NC(=O)[C@H](CC(C)C)NC(=O)[C@@H](N)CCSC)C(=O)O	HLA class I histocompatibility antigen, A alpha chain allele A*26:01	peptide-MHC binding, radioligand competition binding	–	45.5 µM
CC(C)[C@H](NC(=O)CNC(=O)CNC(=O)[C@@H](NC(=O)[C@H](CO)NC(=O)[C@@H]1CCCN1C(=O)[C@H](C)NC(=O)[C@H](CO)NC(=O)[C@H](CCCCN)NC(=O)[C@@H](N)CCCNC(=N)N)[C@@H](C)O)C(=O)O	HLA class I histocompatibility antigen, A alpha chain, allele A*02:17 (Homo sapiens, UniProt P04439)	binding	–	20.6 µM
CC(C)C[C@H](NC(=O)[C@@H](N)CCC(N)=O)C(=O)N[C@H](C(=O)N1CCC[C@H]1C(=O)N[C@H](C(=O)N[C@@H](Cc1c[nH]c2ccccc12)C(=O)N[C@@H](CCCNC(=N)N)C(=O)N[C@H](C(=O)N[C@@H](Cc1ccc(O)cc1)C(=O)O)C(C)C)[C@@H](C)O)[C@@H](C)O	HLA class I histocompatibility antigen, A alpha chain allele A*02:01	peptide-MHC binding, radioligand competition binding	–	> 70 µM
CSCC[C@H](NC(=O)[C@H](CCC(=O)O)NC(=O)[C@H](CCC(=O)O)NC(=O)[C@@H](N)CCCNC(=N)N)C(=O)N[C@@H](CCC(=O)O)C(=O)N[C@H](C(=O)N[C@@H](Cc1c[nH]cn1)C(=O)N[C@@H](CCC(=O)O)C(=O)N[C@@H](CC(C)C)C(=O)O)C(C)C	HLA class I histocompatibility antigen, A alpha chain allele A*02:01	binding, competitor, radioligand competition	two days, room temperature, HLA-A*02:01	> 40 µM

Repeated from above:
SMILES	target	assay	setting	IC50
CSCC[C@H](NC(=O)[C@H](CCC(=O)O)NC(=O)[C@H](CCC(=O)O)NC(=O)[C@@H](N)CCCNC(=N)N)C(=O)N[C@@H](CCC(=O)O)C(=O)N[C@H](C(=O)N[C@@H](Cc1c[nH]cn1)C(=O)N[C@@H](CCC(=O)O)C(=O)N[C@@H](CC(C)C)C(=O)O)C(C)C	HLA class I histocompatibility antigen, A alpha chain allele A*02:01	binding, competitor, radioligand competition	two days, room temperature, HLA-A*02:01	> 40 µM
